Results collected from several papers.
Protocols differ between the studies behind these lines. ± marks the error that the study gave.
UDP-3-O-acyl-N-acetylglucosamine deacetylase C40S: UDP-3-O-acyl-N-acetylglucosamine deacetylase (Pseudomonas aeruginosa, UniProt P47205, C40S)
VPS26A/VPS35/VPS29: VPS26A/VPS35/VPS29 (Homo sapiens, UniProt O75436+Q96QK1+Q9UBQ0)
Chrnd/Chrna1/Chrne: Chrnd/Chrna1/Chrne (Mus musculus, UniProt P02716+P04756+P20782)
Chain of UniProt P20782 (whole entry, looked up): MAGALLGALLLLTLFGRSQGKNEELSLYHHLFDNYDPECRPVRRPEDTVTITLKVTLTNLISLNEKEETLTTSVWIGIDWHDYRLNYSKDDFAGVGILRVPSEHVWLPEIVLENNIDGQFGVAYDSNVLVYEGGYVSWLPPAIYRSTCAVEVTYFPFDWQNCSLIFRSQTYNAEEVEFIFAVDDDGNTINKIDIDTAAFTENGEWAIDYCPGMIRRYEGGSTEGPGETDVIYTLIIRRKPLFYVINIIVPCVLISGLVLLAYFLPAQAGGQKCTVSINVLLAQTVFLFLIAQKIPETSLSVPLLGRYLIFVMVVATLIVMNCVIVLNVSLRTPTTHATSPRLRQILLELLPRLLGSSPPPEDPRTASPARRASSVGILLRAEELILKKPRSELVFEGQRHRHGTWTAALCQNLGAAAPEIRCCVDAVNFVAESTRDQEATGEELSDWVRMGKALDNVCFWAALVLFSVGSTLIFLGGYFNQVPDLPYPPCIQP
Chain of UniProt P04756 (whole entry, looked up): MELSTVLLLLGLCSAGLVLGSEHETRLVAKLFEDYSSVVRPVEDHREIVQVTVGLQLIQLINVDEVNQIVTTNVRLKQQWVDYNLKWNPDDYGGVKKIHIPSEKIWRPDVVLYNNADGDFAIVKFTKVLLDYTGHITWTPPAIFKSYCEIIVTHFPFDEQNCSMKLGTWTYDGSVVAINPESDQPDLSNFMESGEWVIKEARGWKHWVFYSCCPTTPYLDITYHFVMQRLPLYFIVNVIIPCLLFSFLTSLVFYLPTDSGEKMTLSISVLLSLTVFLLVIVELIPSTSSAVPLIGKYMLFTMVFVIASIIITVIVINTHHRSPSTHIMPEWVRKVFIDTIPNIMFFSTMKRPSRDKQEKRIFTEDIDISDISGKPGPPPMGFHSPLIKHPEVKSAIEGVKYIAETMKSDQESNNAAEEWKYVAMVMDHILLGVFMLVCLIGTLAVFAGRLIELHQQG
Chain of UniProt P02716 (whole entry, looked up): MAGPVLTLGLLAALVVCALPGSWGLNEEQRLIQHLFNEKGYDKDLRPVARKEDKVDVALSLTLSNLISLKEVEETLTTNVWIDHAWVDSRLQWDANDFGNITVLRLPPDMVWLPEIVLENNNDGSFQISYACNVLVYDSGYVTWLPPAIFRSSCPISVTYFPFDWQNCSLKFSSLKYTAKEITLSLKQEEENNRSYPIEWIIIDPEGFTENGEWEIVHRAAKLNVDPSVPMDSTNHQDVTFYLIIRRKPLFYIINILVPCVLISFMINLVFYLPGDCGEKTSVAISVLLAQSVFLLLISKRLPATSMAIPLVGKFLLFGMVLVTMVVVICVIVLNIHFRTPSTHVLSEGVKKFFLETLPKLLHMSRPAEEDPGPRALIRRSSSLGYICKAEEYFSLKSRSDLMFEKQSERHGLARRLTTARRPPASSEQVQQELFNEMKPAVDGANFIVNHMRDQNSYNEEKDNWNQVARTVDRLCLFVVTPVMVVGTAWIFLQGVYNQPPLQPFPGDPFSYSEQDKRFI
Chain of UniProt Q9KCC6 (whole entry, looked up): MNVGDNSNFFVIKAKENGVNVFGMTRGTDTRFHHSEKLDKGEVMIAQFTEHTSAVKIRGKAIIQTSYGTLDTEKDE
Chain of UniProt P11509 (whole entry, looked up): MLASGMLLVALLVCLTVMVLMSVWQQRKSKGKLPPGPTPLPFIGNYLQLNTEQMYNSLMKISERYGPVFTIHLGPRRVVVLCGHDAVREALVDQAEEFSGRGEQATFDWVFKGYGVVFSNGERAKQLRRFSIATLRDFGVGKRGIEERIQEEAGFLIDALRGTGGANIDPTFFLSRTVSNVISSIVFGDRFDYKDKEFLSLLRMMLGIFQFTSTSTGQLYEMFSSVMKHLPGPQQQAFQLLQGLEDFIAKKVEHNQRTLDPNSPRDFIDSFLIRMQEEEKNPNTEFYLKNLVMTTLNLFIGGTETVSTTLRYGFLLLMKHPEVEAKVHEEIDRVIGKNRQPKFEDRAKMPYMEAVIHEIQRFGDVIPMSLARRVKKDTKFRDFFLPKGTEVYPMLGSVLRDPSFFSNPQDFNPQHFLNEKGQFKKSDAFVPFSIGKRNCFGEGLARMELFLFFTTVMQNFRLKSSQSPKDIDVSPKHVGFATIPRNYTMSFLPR
Chain of UniProt Q63HR2 (whole entry, looked up): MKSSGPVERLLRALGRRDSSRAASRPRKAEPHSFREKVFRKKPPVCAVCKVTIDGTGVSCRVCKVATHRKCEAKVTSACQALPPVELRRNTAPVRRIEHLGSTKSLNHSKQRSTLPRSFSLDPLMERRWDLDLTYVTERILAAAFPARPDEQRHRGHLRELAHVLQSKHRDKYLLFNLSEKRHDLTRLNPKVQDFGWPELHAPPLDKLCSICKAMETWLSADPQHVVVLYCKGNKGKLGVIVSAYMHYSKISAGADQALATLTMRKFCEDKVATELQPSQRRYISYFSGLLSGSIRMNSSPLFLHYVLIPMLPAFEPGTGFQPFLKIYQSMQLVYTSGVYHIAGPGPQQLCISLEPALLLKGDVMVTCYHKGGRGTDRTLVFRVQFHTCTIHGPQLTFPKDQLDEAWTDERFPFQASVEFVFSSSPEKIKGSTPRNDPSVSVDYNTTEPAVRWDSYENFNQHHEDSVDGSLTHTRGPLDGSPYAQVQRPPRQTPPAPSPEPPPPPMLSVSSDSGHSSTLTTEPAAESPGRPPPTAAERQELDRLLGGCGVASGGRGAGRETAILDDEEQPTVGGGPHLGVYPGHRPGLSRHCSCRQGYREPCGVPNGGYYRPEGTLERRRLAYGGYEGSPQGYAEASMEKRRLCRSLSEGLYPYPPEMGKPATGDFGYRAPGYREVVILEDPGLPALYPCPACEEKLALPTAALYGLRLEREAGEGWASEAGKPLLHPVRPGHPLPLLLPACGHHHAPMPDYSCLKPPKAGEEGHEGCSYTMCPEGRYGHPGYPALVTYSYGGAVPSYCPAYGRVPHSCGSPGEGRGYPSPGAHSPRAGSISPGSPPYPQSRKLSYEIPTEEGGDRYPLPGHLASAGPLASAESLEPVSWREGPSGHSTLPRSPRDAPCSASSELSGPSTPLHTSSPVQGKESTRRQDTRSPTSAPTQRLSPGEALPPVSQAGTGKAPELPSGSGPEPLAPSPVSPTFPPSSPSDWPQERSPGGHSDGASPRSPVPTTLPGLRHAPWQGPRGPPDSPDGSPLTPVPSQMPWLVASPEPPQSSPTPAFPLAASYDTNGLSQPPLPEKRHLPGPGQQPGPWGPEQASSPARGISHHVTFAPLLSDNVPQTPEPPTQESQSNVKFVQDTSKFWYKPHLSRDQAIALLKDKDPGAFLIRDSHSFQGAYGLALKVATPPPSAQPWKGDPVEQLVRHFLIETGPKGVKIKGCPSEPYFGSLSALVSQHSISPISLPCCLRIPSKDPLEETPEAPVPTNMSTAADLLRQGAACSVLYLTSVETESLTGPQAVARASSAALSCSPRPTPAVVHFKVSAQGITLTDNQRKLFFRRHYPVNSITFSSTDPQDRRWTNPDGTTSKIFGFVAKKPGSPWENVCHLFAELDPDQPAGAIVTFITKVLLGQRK
Chain of UniProt Q7M4L6 (whole entry, looked up): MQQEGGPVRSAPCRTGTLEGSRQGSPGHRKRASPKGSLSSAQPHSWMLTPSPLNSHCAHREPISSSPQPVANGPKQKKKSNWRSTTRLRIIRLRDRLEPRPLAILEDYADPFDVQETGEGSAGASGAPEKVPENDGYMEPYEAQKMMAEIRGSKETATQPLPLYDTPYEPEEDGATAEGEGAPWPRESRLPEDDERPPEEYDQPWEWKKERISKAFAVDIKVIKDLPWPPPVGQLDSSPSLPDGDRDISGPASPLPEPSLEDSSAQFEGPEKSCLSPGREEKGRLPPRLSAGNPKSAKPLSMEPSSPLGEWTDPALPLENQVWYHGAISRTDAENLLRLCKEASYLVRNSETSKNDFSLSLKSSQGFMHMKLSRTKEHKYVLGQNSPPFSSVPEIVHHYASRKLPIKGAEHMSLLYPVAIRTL
Chain of UniProt Q9NP31 (whole entry, looked up): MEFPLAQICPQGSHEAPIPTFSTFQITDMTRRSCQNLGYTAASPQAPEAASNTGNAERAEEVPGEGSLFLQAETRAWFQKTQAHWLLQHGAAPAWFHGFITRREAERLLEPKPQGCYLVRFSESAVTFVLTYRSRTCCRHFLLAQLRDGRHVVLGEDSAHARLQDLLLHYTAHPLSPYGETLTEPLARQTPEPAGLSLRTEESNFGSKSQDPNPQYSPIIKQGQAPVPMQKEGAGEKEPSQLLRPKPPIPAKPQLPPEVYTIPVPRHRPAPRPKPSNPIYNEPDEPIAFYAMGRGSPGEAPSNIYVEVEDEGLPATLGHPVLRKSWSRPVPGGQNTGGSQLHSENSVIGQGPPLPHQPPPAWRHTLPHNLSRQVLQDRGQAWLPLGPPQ
Chain of UniProt A2RJT9 (whole entry, unmodified, looked up): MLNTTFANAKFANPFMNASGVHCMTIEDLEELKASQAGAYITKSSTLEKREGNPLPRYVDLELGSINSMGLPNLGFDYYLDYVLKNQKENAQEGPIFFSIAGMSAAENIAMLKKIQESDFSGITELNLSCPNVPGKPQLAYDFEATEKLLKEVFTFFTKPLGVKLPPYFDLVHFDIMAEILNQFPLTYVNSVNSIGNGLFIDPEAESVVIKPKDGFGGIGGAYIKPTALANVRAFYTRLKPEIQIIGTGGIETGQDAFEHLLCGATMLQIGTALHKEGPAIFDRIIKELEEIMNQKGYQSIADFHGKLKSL
Chain of UniProt F4KU78 (whole entry, looked up): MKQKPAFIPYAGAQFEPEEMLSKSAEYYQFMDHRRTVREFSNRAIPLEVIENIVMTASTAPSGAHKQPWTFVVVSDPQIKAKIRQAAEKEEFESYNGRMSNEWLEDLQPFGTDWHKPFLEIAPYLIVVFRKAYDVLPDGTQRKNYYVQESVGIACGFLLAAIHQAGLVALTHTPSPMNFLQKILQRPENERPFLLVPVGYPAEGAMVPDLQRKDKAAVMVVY
Chain of UniProt P04631 (whole entry, looked up): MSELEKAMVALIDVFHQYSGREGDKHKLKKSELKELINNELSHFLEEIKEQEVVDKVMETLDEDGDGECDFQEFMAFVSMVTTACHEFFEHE

SMILES | target | assay | test system | conditions | Kd
CSCC[C@H](NC(=O)CNC(=O)[C@H](Cc1ccccc1)NC(=O)[C@H](CC(=O)O)NC(=O)CNC(=O)c1ccc2c(c1)C(=O)OC21c2ccc(N(C)C)cc2Oc2cc(N(C)C)ccc21)C(=O)N[C@@H](CO)C(=O)N[C@@H](CCCNC(=N)N)C(=O)N[C@@H](CC(=O)O)C(=O)N[C@H](C(=O)N[C@@H](Cc1ccc(OP(=O)(O)O)cc1)C(=O)N[C@@H](CO)C(=O)N[C@H](C(=O)N[C@@H](CC(=O)O)C(=O)N[C@@H](Cc1ccc(O)cc1)C(=O)N[C@@H](Cc1ccc(O)cc1)C(=O)N[C@@H](CCCNC(=N)N)C(=O)N[C@H](C(=O)N[C@@H](CC(=O)O)C(=O)O)C(C)C)[C@@H](C)O)C(C)C | SH2 domain-containing protein 2A, SH2 domain (SH2D2A, Homo sapiens, UniProt Q9NP31) | – | – | – | 1.6 µM
O=C(O)c1ccc(O)c(O)c1 | Dihydroorotate dehydrogenase A (fumarate) (pyrDA, Lactococcus lactis subsp. cremoris, UniProt A2RJT9, L71F) | binding, aerobic titration | Lactococcus lactis | 25 °C | no binding
Nc1nc2c(ncn2[C@@H]2O[C@@H]3COP(=O)(O)O[C@H]4[C@@H](O)[C@H](n5cnc6c(=O)[nH]c(N)nc65)O[C@@H]4COP(=O)(O)O[C@H]3[C@H]2O)c(=O)[nH]1 | Cell cycle histidine kinase CckA, R374A; cytoplasmic region (Caulobacter vibrioides, UniProt Q9X688, R374A) | isothermal titration calorimetry | Caulobacter crescentus | 12 °C, with: AMPPNP 5 mM | 48 µM
O=C(NO)[C@H]1COC(c2ccc(OC(F)(F)F)c(Cl)c2)=N1 | UDP-3-O-acyl-N-acetylglucosamine deacetylase C40S | bio-layer interferometry | – | pH 7.0, 298 K, with: ZnCl2 equimolar | 0.744 µM
C/C(=C\C(=O)OCCCCCCCCC(=O)O)C[C@@H]1OC[C@H](C[C@@H]2O[C@H]2[C@@H](C)[C@H](C)O)[C@@H](O)[C@H]1O | Isoleucine--tRNA ligase (ileS, Staphylococcus aureus, UniProt Q5HGN8) | – | – | – | 1.8e-05 ± 7e-06 µM
N[C@@H](Cc1c[nH]c2ccccc12)C(=O)O | Transcription attenuation protein MtrB, tandemly linked subunits (mtrB, Halalkalibacterium halodurans, UniProt Q9KCC6) | binding, ITC | – | – | 4.5 ± 1.4 µM
CC[C@H](C)[C@@H]1NC(=O)CNC(=O)CNC(=O)[C@H](C)NC(=O)[C@@H](N)CSSC[C@@H](C(N)=O)NC(=O)[C@H](CCCCN)NC(=O)[C@H](CC(C)C)NC(=O)[C@H](C)NC(=O)[C@H](CC(C)C)NC(=O)[C@H](CO)NC(=O)[C@H](Cc2c[nH]cn2)NC(=O)[C@H](Cc2ccccc2)NC1=O | KPC-2 (Klebsiella pneumoniae, UniProt Q9F663) | binding | – | – | 0.3 to 2 µM
CC[C@H](C)[C@H](NC(=O)[C@H](CCCCN)NC(=O)[C@@H](NC(=O)[C@H](CCCNC(=N)N)NC(=O)[C@@H](NC(=O)c1ccc2c(c1)C(=O)OC21c2ccc(O)cc2Oc2cc(O)ccc21)[C@@H](C)O)[C@@H](C)O)C(=O)N[C@@H](CC(=O)O)C(=O)N[C@@H](Cc1c[nH]c2ccccc12)C(=O)NC(C)(C)C(=O)N[C@@H](CCCCN)C(=O)N[C@H](C(=O)N[C@@H](CC(C)C)C(=O)NC(C)(C)C(=O)NCC(=O)NCC(=O)NCC(=O)N[C@@H](CSC1CC(=O)N(CCCCCCN2C(=O)CC(SC[C@H](NC(=O)CNC(=O)CNC(=O)CNC(=O)C(C)(C)NC(=O)[C@H](CC(C)C)NC(=O)[C@@H](NC(=O)[C@H](CCCCN)NC(=O)C(C)(C)NC(=O)[C@H](Cc3c[nH]c4ccccc34)NC(=O)[C@H](CC(=O)O)NC(=O)[C@@H](NC(=O)[C@H](CCCCN)NC(=O)[C@@H](NC(=O)[C@H](CCCNC(=N)N)NC(=O)[C@@H](NC(=O)c3ccc4c(c3)C(=O)OC43c4ccc(O)cc4Oc4cc(O)ccc43)[C@@H](C)O)[C@@H](C)O)[C@@H](C)CC)[C@@H](C)CC)C(=O)NCC(N)=O)C2=O)C1=O)C(=O)NCC(N)=O)[C@@H](C)CC (stereo partly drawn) | Protein S100-B (Rattus norvegicus, UniProt P04631) | fluorescence anisotropy | – | pH 7.4, Ca2+ present, with: 50-100 nM fluorescein-labelled peptide | 0.03 ± 0.009 µM
CC1(CNC(=O)c2ccc(C#CC#Cc3ccccc3)cc2)NC(=O)NC1=O (stereo not drawn) | UDP-3-O-acyl-N-acetylglucosamine deacetylase C40S | binding | – | – | 63.9 µM
CSCC[C@H](NC(=O)[C@H](Cc1ccc(OP(=O)(O)O)cc1)NC(=O)CNC(=O)CNC(=O)[C@H](CC(=O)O)NC(=O)[C@H](CO)NC(=O)[C@H](CCC(=O)O)NC(=O)CNC(=O)[C@@H](NC(=O)[C@H](CC(C)C)NC(=O)[C@H](CO)NC(=O)c1ccc2c(c1)C(=O)OC21c2ccc(N(C)C)cc2Oc2cc(N(C)C)ccc21)[C@@H](C)O)C(=O)N[C@@H](CC(=O)O)C(=O)N[C@@H](CCSC)C(=O)N[C@@H](CO)C(=O)N[C@@H](CCCCN)C(=O)N[C@@H](CC(=O)O)C(=O)N[C@@H](CCC(=O)O)C(=O)N[C@@H](CC(=O)O)C(=O)O | Proto-oncogene tyrosine-protein kinase Src, SH2 domain (SRC, Homo sapiens, UniProt P12931) | binding | – | – | 0.342 µM
CCCOC/C(=N\c1ccc(Cl)cc1C(F)(F)F)n1ccnc1 | Cytochrome P450 2A6 (CYP2A6, Homo sapiens, UniProt P11509) | binding | – | 20 min, pH 7.4, purified protein, 2% DMSO | 19.9 µM
C[C@@H](O)[C@H](NC(=O)c1ccc(-c2ccc(Br)cc2)cc1)C(=O)NCC1(C)NC(=O)NC1=O (stereo partly drawn) | UDP-3-O-acyl-N-acetylglucosamine deacetylase C40S | binding | – | – | > 100 µM
Nc1ncnc2c1ncn2[C@@H]1O[C@H](COP(=O)(O)OP(=O)(O)OP(=O)(O)O)[C@@H](O)[C@H]1O | Heat shock protein 90 homolog (Candida albicans, UniProt P46598) | binding, fluorescence polarization competition | – | 3 h, room temperature, with: geldanamycin-FITC 5 nM | 106 µM
CC(C)C[C@@H]1NC(=O)CNC(=O)[C@H](CC(C)C)NC(=O)[C@@H]2CCCN2C(=O)[C@H](CC(=O)O)NC(=O)[C@H](Cc2ccc(O)cc2)NC(=O)CNC(=O)[C@@H](Cc2ccc(O)cc2)NC(=O)CSC[C@@H](C(N)=O)NC(=O)[C@H](C)NC(=O)[C@H](Cc2ccccc2)NC(=O)[C@H](Cc2ccc(O)cc2)NC(=O)[C@H](CCCCN)NC1=O | VPS26A/VPS35/VPS29 | binding | – | – | 0.025 ± 0.001 µM
NCCc1ccccc1 | SAR11_0271 Candidatus Pelagibacter | binding, ITC | – | one-set-of-sites model | 7.94 µM
CC[C@H](C)[C@@H]1NC(=O)[C@H]([C@@H](C)CC)NC(=O)[C@@H](Cc2ccc(O)cc2)NC(=O)CSC[C@@H](C(N)=O)NC(=O)[C@H](CCCNC(=N)N)NC(=O)[C@H](CCCCN)NC(=O)[C@H](CC(C)C)NC(=O)[C@H](CO)NC(=O)[C@H](CO)NC(=O)[C@H](CC(C)C)NC(=O)[C@H](Cc2ccccc2)NC(=O)[C@H](C(C)C)NC(=O)CNC(=O)[C@H](CC(C)C)NC(=O)[C@@H]2CCCN2C(=O)[C@H]([C@@H](C)O)NC(=O)[C@H](CC(=O)O)NC1=O | VPS26A/VPS35/VPS29 | binding | – | – | 0.13 ± 0.009 µM
c1cncc([C@@H]2CCCCN2)c1 | Chrnd/Chrna1/Chrne | resting state binding, single-channel kinetics | cell-attached patch | AChR wild type | 234 µM
O=C(O)CNC(=O)c1cccnc1 | Ubiquitin carboxyl-terminal hydrolase 39, ZnF-UBD domain (Homo sapiens, UniProt Q53GS9) | – | – | – | > 1000 µM
CC(=O)N[C@H](C(=O)N1C[C@H](O)C[C@H]1C(=O)NCc1ccc(-c2scnc2C)cc1)C(C)(C)SCCCCCCNC(=O)C[C@@H]1N=C(c2ccc(Cl)cc2)c2c(sc(C)c2C)-n2c(C)nnc21 | BRD2/VHL, BD1; with VCB (Homo sapiens, UniProt P25440+P40337, K107A/Q101K/V106E) | ternary binding, ITC | – | 25 °C, VCB titrated into complex, with: BRD2 BD1 KEA mutant | 0.052 ± 0.018 µM
O=[N+]([O-])c1ccc2c(N=Nc3ccc4ccccc4c3O)c(O)cc(S(=O)(=O)O)c2c1 | Diphosphomevalonate decarboxylase (Staphylococcus epidermidis, UniProt Q9FD73, R193T) | – | – | – | 1.3 ± 0.3 µM
NC(=O)c1cccnc1 | Nicotinamide N-methyltransferase, SAM-bound (Rattus norvegicus, UniProt A0ABK0M0V0) | substrate, SPR | – | 37 °C, with: SAM | 200 µM
CC[C@@H](C)[C@@H](NC(=O)[C@@H](Cc1ccc(O)cc1)NC(=O)[C@H]1CCCN1C(=O)[C@@H](CCCNC(=N)N)NC(=O)[C@H](N)Cc1c[nH]cn1)C(=O)N[C@H](C)C(=O)N[C@H](Cc1c[nH]cn1)C(=O)N[C@H](CCCNC(=N)N)C(=O)N[C@@H](C(=O)N[C@H](Cc1ccc(O)cc1)C(=O)N[C@H](CO)C(=O)N[C@H](Cc1ccccc1)C(N)=O)C(C)C | CD274 (Homo sapiens, UniProt Q9NZQ7) | microscale thermophoresis | – | 2 h, His-tagged protein | 5.7 ± 0.4 µM
C[N+](C)(C)C | Chrnd/Chrna1/Chrne | single-channel kinetics | – | wild-type receptor | 810 µM
CC[C@H](C)[C@H](NC(=O)[C@H](CC(=O)O)NC(=O)[C@H](C)NC(=O)[C@H](Cc1ccc(O)cc1)NC(=O)[C@H](CCCCN)NC(=O)c1ccc2c(c1)C(=O)OC21c2ccc(N(C)C)cc2Oc2cc(N(C)C)ccc21)C(=O)N[C@@H](CCC(=O)O)C(=O)N[C@@H](CO)C(=O)N[C@@H](CO)C(=O)N[C@@H](CC(N)=O)C(=O)N[C@@H](Cc1ccc(OP(=O)(O)O)cc1)C(=O)N[C@@H](CCSC)C(=O)N[C@@H](C)C(=O)N1CCC[C@H]1C(=O)N[C@@H](Cc1ccc(O)cc1)C(=O)N[C@@H](CC(=O)O)C(=O)N[C@@H](CC(N)=O)C(=O)N[C@@H](Cc1ccc(O)cc1)C(=O)N[C@@H](CC(=O)O)C(=O)O | TNS2, SH2 domain (Homo sapiens, UniProt Q63HR2) | binding | – | – | 0.426 µM
N[C@@H](Cc1ccc(O)c(I)c1)C(=O)O | Iodotyrosine deiodinase (Haliscomenobacter hydrossis, UniProt F4KU78) | binding | – | – | 12 ± 1 µM
CSCC[C@H](NC(=O)[C@H](CC(=O)O)NC(=O)c1ccc2c(c1)C(=O)OC21c2ccc(N(C)C)cc2Oc2cc(N(C)C)ccc21)C(=O)N[C@@H](CO)C(=O)N[C@@H](CCCCN)C(=O)N[C@@H](CC(=O)O)C(=O)N[C@@H](CCC(=O)O)C(=O)N[C@@H](CO)C(=O)N[C@H](C(=O)N[C@@H](CC(=O)O)C(=O)N[C@@H](Cc1ccc(OP(=O)(O)O)cc1)C(=O)N[C@H](C(=O)N1CCC[C@H]1C(=O)N[C@@H](CCSC)C(=O)N[C@@H](CC(C)C)C(=O)N[C@@H](CC(=O)O)C(=O)N[C@@H](CCSC)C(=O)N[C@@H](CCCCN)C(=O)N[C@@H](CC(=O)O)C(=O)O)C(C)C)C(C)C | SH2 domain-containing adapter protein F, SH2 domain (SHF, Homo sapiens, UniProt Q7M4L6) | binding | – | – | 0.652 µM
NC[C@H](NC(=O)c1ccc(C#CC#Cc2ccccc2)cc1)C(=O)NO | UDP-3-O-acyl-N-acetylglucosamine deacetylase C40S | binding | – | – | 0.0586 µM
